Measured values of several laboratories.
Parts stem from different laboratories: compare values within a part only.

Block 1
Target: Histone acetyltransferase KAT6A, both winged helices, GST fusion (KAT6A, Homo sapiens, UniProt Q92794, residues 1-181)
Method: protein binding microarray
Form: double-stranded DNA, one strand shown
Medium: in vitro
Tested at: not given
Notes: 8-mer, flanks averaged, mean of 2 arrays, mostly near background
Baseline: not given
Direction: higher = stronger binding
Residues (chain): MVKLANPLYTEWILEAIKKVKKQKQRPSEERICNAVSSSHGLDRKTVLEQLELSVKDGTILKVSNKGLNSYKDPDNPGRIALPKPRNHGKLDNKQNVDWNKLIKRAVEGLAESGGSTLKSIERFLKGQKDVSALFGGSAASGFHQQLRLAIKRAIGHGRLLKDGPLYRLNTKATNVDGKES
With `TCCGTGCA` the E-score was 0.196.
`CGTGAGCA` has an E-score of 0.174.
The E-score of `AACTCCTG` is reported as -0.177.
For `AAGGTGAG`, the E-score was -0.0571.

Block 2
Target: Sal-like protein 4, full length isoform B (SALL4, Homo sapiens, UniProt Q9UJQ4-2, residues 1-616)
Method: universal PBM
Form: double-stranded DNA, one strand shown
Medium: in vitro
Tested at: not given
Notes: 8-mer, flanks averaged, mean of replicates
Direction: higher = stronger binding
`AGTTTCTA` has an E-score of 0.098.
For `AACCCATA`, the E-score was 0.263.
`TCGCATCA` gave an E-score of -0.00213.
For `GATAAACA`, the E-score was 0.2.

Block 3
Target: Interferon regulatory factor 5, full length, phosphomimetic (IRF5, Homo sapiens, UniProt Q13568-2, residues 1-514, S451D/S453D/S456D/S462D)
Method: protein-binding microarray
Form: double-stranded DNA, one strand shown
Medium: in vitro
Tested at: 940 nM top
Notes: 60-bp whole probe
Added: salmon DNA 0.4 mg/ml
Baseline: random background probes
Direction: higher = stronger binding
`GCCTAGCACTCATAGGTTTCACTTTCCACTGTGCTAGTCTTGATTCGCTTGACGCTGCTG`: “fitted relative affinity” 6.1 z-score.
`GCCTAGCACGACGTACTGAGTCTCGAGACGTGCTAGGTCTTGATTCGCTTGACGCTGCTG` — result for “fitted relative affinity”: 0.784 z-score.
For `GCCTAGCACGACGAGCTGAGTATCGAGACGTGCTAGGTCTTGATTCGCTTGACGCTGCTG`, “fitted relative affinity” read 1.88 z-score.

Single results of other studies
`PhoQ, residues 284 288 289 292 302 303 SMYGEC` has a fold induction of 9.23 (PhoP, residues 12 14 15 18 19 AWHSL (Escherichia coli, UniProt P23836); Sort-seq, measured: YFP reporter; E. coli; PhoQ-PhoP variant library, added: 10 µM Mg2+; baseline: high Mg2+ state, higher = stronger signaling).

For quick reference, copied from above (block 3):
`GCCTAGCACGACGTACTGAGTCTCGAGACGTGCTAGGTCTTGATTCGCTTGACGCTGCTG` — result for “fitted relative affinity”: 0.784 z-score.
